Published values collected from several papers.
Protocols differ between the studies behind these lines. ± marks the error that the study gave.
UniProt Q9Y5T5, sequence (whole entry, looked up): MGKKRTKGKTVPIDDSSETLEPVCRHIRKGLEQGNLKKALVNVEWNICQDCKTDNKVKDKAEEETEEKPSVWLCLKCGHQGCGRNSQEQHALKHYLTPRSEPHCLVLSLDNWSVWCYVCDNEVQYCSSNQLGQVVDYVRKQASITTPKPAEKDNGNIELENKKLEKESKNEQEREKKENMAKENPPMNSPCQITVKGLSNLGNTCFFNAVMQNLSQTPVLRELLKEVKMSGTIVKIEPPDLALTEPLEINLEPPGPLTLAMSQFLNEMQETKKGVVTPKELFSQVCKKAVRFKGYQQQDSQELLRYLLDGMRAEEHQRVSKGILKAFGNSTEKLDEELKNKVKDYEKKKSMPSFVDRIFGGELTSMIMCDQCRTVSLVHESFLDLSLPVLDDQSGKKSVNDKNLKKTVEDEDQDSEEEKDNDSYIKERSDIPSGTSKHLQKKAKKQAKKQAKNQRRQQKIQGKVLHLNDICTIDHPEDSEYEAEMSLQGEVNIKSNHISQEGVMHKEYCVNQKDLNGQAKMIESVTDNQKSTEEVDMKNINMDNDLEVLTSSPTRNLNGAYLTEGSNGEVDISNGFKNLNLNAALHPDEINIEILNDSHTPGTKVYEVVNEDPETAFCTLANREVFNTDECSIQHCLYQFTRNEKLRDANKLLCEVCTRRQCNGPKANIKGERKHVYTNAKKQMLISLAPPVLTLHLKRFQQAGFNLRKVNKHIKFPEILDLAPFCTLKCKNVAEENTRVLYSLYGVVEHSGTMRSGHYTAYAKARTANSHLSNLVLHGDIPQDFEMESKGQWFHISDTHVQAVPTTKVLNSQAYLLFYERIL

Cc1ccc([C@@H]2O[C@H](CO)[C@@H](O)[C@H](O)[C@H]2O)cc1Cc1ccc(-c2ccc(F)cc2)s1  urinary sodium excretion change (Japanese type 2 diabetes patients; 400 mg, day 2, 24 h urine collection; reference: baseline): -18 mEq
CC[C@H](C)[C@H](NC(=O)CN)C(=O)N[C@@H](CC(C)C)C(=O)N[C@@H](CC(=O)O)C(=O)N[C@@H](C)C(=O)N[C@H](C(=O)N[C@@H](CCCCN)C(=O)N[C@@H](C)C(=O)N[C@H](C(=O)N[C@@H](C)C(=O)N[C@@H](CCCCN)C(=O)N[C@@H](C)C(=O)N[C@@H](C)C(=O)NCC(N)=O)[C@@H](C)CC)[C@@H](C)CC  helix content (circular dichroism; 10 mM SDS; 100 µM): 13%
CNCCOC12CC3(C)CC(C)(CC(Cn4ncc(-c5ccc(N6CCc7cccc(C(=O)Nc8nc9ccccc9s8)c7C6)nc5C(=O)O)c4C)(C3)C1)C2  plasma concentration (anaesthetised male beagle dogs; intravenous bolus, 0.03 mg/kg, 60 min): 1.1 ± 0.1 ng/mL
CC(C)n1c(C2CCNCC2)nc2c([N+](=O)[O-])c(Br)c(Br)cc21  amount excreted in urine (human, urine; oral, 100 mg, 0-24 h, median, single dose): 1.26 mg
C[Si](C)(C)O[Si](C)(C)O[Si](C)(C)C  entropy of phase change (1-octanol/air; concentration not given): -0.054 kJ/(mol·K)
COC(=O)/C=C/c1cc(C(=O)NCc2ccc(C)cc2)cc(-c2ccc3ncnn3c2)c1  remaining parent compound (mouse, liver microsomes; 1 µg/mL, 60 min, pH 7.4, 0.5 mg/mL protein, together with: NADPH): ~25%
COc1ccc2c(c1)CN(C(=O)CCN1CCC(Cc3ccccc3)CC1)CC[S@@+]2[O-]  diastolic blood pressure (telemetry; conscious dog; intravenous, 4 mg/kg, 0.5 h): 82 ± 14 mmHg
N=C(N)NCCCC(=O)O  log2 fold change (binding, MIDAS equilibrium dialysis LC-MS; A2AR-BRIL thermostabilized; concentration not given; reference: no-protein control): -0.149
O=C(COc1ccc(N2C(=O)[C@@H]3[C@@H]4C=C[C@@H]([C@H]5C[C@@H]45)[C@@H]3C2=O)cc1)c1cc(Cl)cc(Cl)c1  free brain Cmax (female CD-1 mice, brain; oral, 20 mg/kg): 14 nM
Cc1c(-c2ccc(N3CCc4cccc(C(=O)Nc5nc6ccccc6s5)c4C3)nc2C(=O)O)cnn1CC12CC3(C)CC(C)(C1)CC(OCCNCC[C@H](O)CO)(C3)C2  dP/dt at 50 change (beagle dog, male, anaesthetised; intravenous infusion, 0.3 mg/kg/min, 75 min; reference: vehicle): -25%
Cc1cc(NC2CCN(C(=O)OC3CCN(C(=O)/C=C/CN(C)C)C3)CC2)n2ncc(C(C)C)c2n1 (stereo not shown)  patients with adverse event (Phase I dose escalation CTCAE v4.0, item: small intestinal obstruction; patients with advanced solid tumours; dose not given, TIW dosing any grade): 0%
CNC(=O)c1ccc(-c2cnc3ncc(Cc4ccc5ncccc5c4)n3n2)cc1F  patients with adverse event (item: Vomiting, all grades; cancer patients; oral, 600 mg twice daily, other expansion cohort, any causality): 28%
OCC1=C[C@@H](O)[C@@H]2C=CO[C@@H](O[C@@H]3O[C@H](CO)[C@@H](O)[C@H](O)[C@H]3O)[C@H]12  accuracy (three freeze-thaw cycles; rat plasma; 8 ng/mL, -70 °C freeze): 88.2%
N#Cc1ccc2c(c1)[C@H]1CCCN(C(=O)c3ccc4[nH]cnc4c3)[C@H]1C2  SHBG level (human males; 160 mg, day 15): 37 nmol/L
C[C@H](N[C@@H](CCc1ccccc1)C(=O)O)C(=O)N1[C@H](C(=O)O)C[C@H]2CCCC[C@@H]21  autosampler stability (processed human plasma; 300 pg/mL, 48 h, 4 °C; reference: nominal): 99 ± 9.1%
COc1ccc(OCc2ccc([N+](=O)[O-])cc2)cc1-c1c[nH]c2ncc(-c3cncc(C(=O)N(C)C)c3)cc12  chemical stability (HPLC; PBS; 24 h, 37 °C): stable
CC(C)[C@@H](CS(=O)(=O)C(C)C)N1C(=O)[C@@](C)(CC(=O)O)C[C@H](c2cccc(Cl)c2)[C@H]1c1ccc(Cl)cc1  spinal cord distribution advantage (FVB mouse, Abcb1a/b and Abcg2 knockout, spinal cord; intravenous, 20 mg/kg, unit not given; reference: knockout Kp over wild-type Kp): 89
CNc1ccc(-c2nc3ccc(O)cc3s2)cc1 [carbon-11 labelled]  SUV (ex vivo biodistribution; B6SJL mouse, normal, kidneys; intravenous, 30 min): 3.88 ± 0.803
C[C@@H]1COCCN1c1cc(C2([S@](C)(=N)=O)CC2)nc(-c2cc[nH]c3nccc2-3)n1  Pruritus incidence (Japanese advanced solid tumour patients; oral, 160 mg twice daily, any grade): 0%
O=C(Nc1nc2cccc(-c3ccc(CN4CCS(=O)(=O)CC4)cc3)n2n1)C1CC1  patients with dizziness (rheumatoid arthritis patients; oral, 200 mg once daily, 4 weeks, regardless of relatedness): 0%
COc1cccc(-c2n[nH]c(SCc3ccccn3)n2)c1OC  Cmax (Sprague-Dawley rat, female, plasma; oral gavage, 10 mg/kg): 14900 ng/mL
CCOc1c([C@H](C)n2nc(C)c3c(N)ncnc32)cc(Cl)c(F)c1[C@@H]1CNC(=O)C1  patients (item: QRS >100 to ≤110 ms; previously treated B-cell malignancy; oral, 30 mg once daily, baseline below thresholds): 10.5%
COc1nnc2ccc(N3CCC(c4ccc(OCCN5CCN(C)C(=O)[C@H]5C)cc4)CC3)nn12  AUC(0-t) (patients, plasma; oral, 40 mg once daily, multiple dose, monotherapy): 0.618 µM·h
CCc1cc(C(=O)NC)c2nccc(N3CCc4c(cc(Cn5ccnc5)cc4-c4cn(C)nc4C(F)(F)F)C3=O)c2c1  serum CREA level (Sprague Dawley rats; oral, 100 mg/kg once daily, 7 days): 47.7 ± 2.86 µmol/L
Cc1cc(-c2nccc3c2ccn3CC(=O)Nc2ccc(-c3cnccn3)cn2)ccn1  subjects with serious TEAE (human; 15 mg once daily, multiple ascending dose): 0%
C=C[C@@](C)(/C=C/c1ccc(O)cc1)CCC=C(C)C  accuracy (rat plasma; 200 ng/mL, 2 weeks, -70 °C, post-preparative stability): 108%
NC1(C(=O)N[C@@H](CCO)c2ccc(Cl)cc2)CCN(c2nc[nH]c3nccc2-3)CC1  incidence of Neutropenia (metastatic CRPC patients; 480 mg b.i.d., any grade, treatment-related, together with: enzalutamide 160 mg daily): 20%
O=C(O)CCn1cccn1  Kd (Ubiquitin carboxyl-terminal hydrolase 16, ZnF-UBD domain (USP16, Homo sapiens, UniProt Q9Y5T5)): > 1 mM
O=C(O)CN1CCCN2CCN(Cc3ccccc3)CCCN(CC1)Cc1cccc(n1)C2  copper(II) complex dissociation half-life (5 M HCl; 90 °C): 90 min
Cn1cc(-c2ccc(-c3cncc(Cl)c3N3CCC4(CCNC4=O)CC3)cc2)cn1  log2 fold change (COLO 205; gene expression, microarray, item: STC1 mRNA; concentration not given, 6 h; reference: untreated cells): 2.14
Cc1ccc(Sc2ccccc2N2CCNCC2)c(C)c1  adverse event incidence (healthy adult men; oral, 5 mg single dose, 10 days): 0%
C[C@@H](N)C1CCN(S(=O)(=O)c2cccc3cnccc23)CC1  participants with epistaxis (healthy volunteers; 75 mg, fasted): 0%
CCN(CC)CCOC(=O)c1ccc(N)cc1  remaining compound (LC-MS; BALB/c nude mouse, plasma; 0 min): 100%
CCN1/C(=C/C(C)=O)Sc2ccc(F)cc21  heart rate change (cynomolgus monkey; oral, 30 mg/kg, 2 h post-dose; reference: pre-dose): 109 ± 20.9%
O=C(O)Cc1cc(O)ccc1O  log2 fold change (binding, MIDAS equilibrium dialysis LC-MS; A2AR-BRIL thermostabilized; concentration not given; reference: no-protein control): -1.42
CO[C@@H]1[C@H](O)[C@@H](CO)O[C@H]1n1c([N+](=O)[O-])nc2c(=O)[nH]c(N)nc21  nucleoside remaining fraction (depurination, RP-HPLC; citrate-phosphate buffer 0.5 mM; 1380 min, pH 5, 37 °C): 0.519
CC(=O)O[C@H]1C(=O)[C@@]2(C)[C@H]([C@H](OC(=O)c3ccccc3)[C@]3(O)C[C@H](OC(=O)[C@H](O)[C@@H](NC(=O)c4ccccc4)c4ccccc4)C(C)=C1C3(C)C)[C@]1(OC(C)=O)CO[C@@H]1C[C@@H]2O  adverse event incidence (item: Anaemia; patients with advanced solid tumours; intravenous, dose not given, grade 3 and 4, possibly related to drug): 26%
COc1nc(-c2cc(C)c(N[C@@H](C)c3cc(F)cc(F)c3)nn2)ccc1-n1cnc(C)c1  Tmax (cynomolgus monkey, male, plasma; intravenous, 1 mg/kg): 15 min
c1ccc2c(c1)c1cccc3ccc4cccc2c4c31  literature range factor (polyethylene-water partitioning; PAH compilation; reference: maximum over minimum K): 10
C[C@@](Cc1ccc(O)c(O)c1)(NN)C(=O)O  AUC(0-t) (Parkinson's disease patients, plasma; oral, dose not given, 3 h, low levodopa Cmax subgroup (<9 µmol/L), median): 0.36 µM·h
O=C1NCCc2nc(OCc3cccc(F)c3)ccc21  Irwin test score (item: loss of Grasping; Sprague-Dawley rat male; oral, 100 mg/kg, 30 min; direction not given): 0
O=C(COc1ccc(Cl)cc1)NC12CC(c3nnc([C@H]4C[C@@H](OC(F)(F)F)C4)o3)(C1)C2  AUC (healthy human volunteers fasted, plasma; oral, 800 mg single dose, geometric mean): 685 µM·h
Cc1c(O)c(=O)ccn1C(C)C.Cl  partition coefficient (shake-flask, item: iron(III) complex; 1-octanol/Tris buffer; pH 7.4, ligand:iron 10:1): 0.5 ± 0.06

For quick reference, copied from above:
CNc1ccc(-c2nc3ccc(O)cc3s2)cc1 [carbon-11 labelled]  SUV (ex vivo biodistribution; B6SJL mouse, normal, kidneys; intravenous, 30 min): 3.88 ± 0.803
C[C@@H]1COCCN1c1cc(C2([S@](C)(=N)=O)CC2)nc(-c2cc[nH]c3nccc2-3)n1  Pruritus incidence (Japanese advanced solid tumour patients; oral, 160 mg twice daily, any grade): 0%
O=C(Nc1nc2cccc(-c3ccc(CN4CCS(=O)(=O)CC4)cc3)n2n1)C1CC1  patients with dizziness (rheumatoid arthritis patients; oral, 200 mg once daily, 4 weeks, regardless of relatedness): 0%
COc1cccc(-c2n[nH]c(SCc3ccccn3)n2)c1OC  Cmax (Sprague-Dawley rat, female, plasma; oral gavage, 10 mg/kg): 14900 ng/mL
CCOc1c([C@H](C)n2nc(C)c3c(N)ncnc32)cc(Cl)c(F)c1[C@@H]1CNC(=O)C1  patients (item: QRS >100 to ≤110 ms; previously treated B-cell malignancy; oral, 30 mg once daily, baseline below thresholds): 10.5%
